# Measurements pooled from the literature.
# Each line is one published result; not all experiments were run side by side. Several values in a cell are separate wells, animals, samples, runs or records. Numbers after ± are the reported error.
SMILES,cell line,test,setting,how to read,measurement,result
C[C@H]1[C@H](C)CC[C@]2(C)CC[C@]3(C)C(=CC(=O)[C@@H]4[C@@]5(C)CC[C@@H](O)[C@](C)(C(=O)NCc6cn(-c7cccc(Br)c7)nn6)[C@@H]5CC[C@]43C)[C@H]12,human PBMCs,flow cytometry,5 µM,baseline: CD8- T cells,PD-1 positive cells,16.1%
COc1cc2ncnc(Nc3ccc(Oc4ccccc4)cc3C)c2cc1OC.O=C(O)C(F)(F)F,LoVo (KRAS G13D),"cell viability, resazurin","1 µM, 72 h, with: trametinib 0 nM",baseline: DMSO,average fractional effect,1.42%
[Cl-].[Cl-].[Ru+2].c1cnc2c(c1)ccc1cccnc12.c1cnc2c(c1)ccc1cccnc12.c1csc(-c2ccc(-c3ccc(-c4nc5c6cccnc6c6ncccc6c5[nH]4)s3)s2)c1,SK-MEL-28,,"normoxia, with: visible light",,phototherapeutic index,1600
Cn1cc(-c2ccc(-c3cncc(Cl)c3N3CCC4(CCNC4=O)CC3)cc2)cn1,COLO 205,"gene expression, microarray, measured: HIST1H4I mRNA","concentration not given, 2 h",baseline: untreated cells,log2 fold change,-2.5
Cc1cc(Nc2ncc(Cl)c(Nc3ccccc3S(=O)(=O)C(C)C)n2)c(OC(C)C)cc1C1CCNCC1,CLB-GE,"phosphoproteomics LC-MS/MS, measured: SHC2 phosphorylation","200 nM, 60 min",baseline: untreated,log2 fold change,-2.14
COc1cc2c(NC3CCN(C)CC3)nc(N3CCCN(C)CC3)nc2cc1OCCOCCN(C)C,OCI-Ly1,,"0.1 µM, 120 h",,viability,188%
COc1ccc(NC(=S)N/N=C/c2cccc3cc4ccccc4nc23)cc1,HeLa,annexin V/PI flow cytometry,"IC50, 48 h, with: N-acetylcysteine",,necrotic cells,6.31 ± 0.77%
COc1cc2c(NC3CCN(C4CCCCC4)CC3)nc(N3CCCN(C(C)C)CC3)nc2cc1OCCCN1CCCCC1,OCI-Ly1,,"1 µM, 120 h",,viability,145%
C=CC(=O)N1[C@@H](c2ccc3c(c2)OCO3)c2[nH]c3ccccc3c2C[C@H]1C(=O)NC,rat DRG neurons,,"0.004572 µM, 48 h, with: vincristine 40 nM",,neuron degeneration,91.1% and 89%
CC(=O)Nc1ccc(C(=O)Nc2ccccc2N)cc1,OCI-Ly1,,"0.1 µM, 120 h",,viability,5.72%
CSc1nc(-c2ccc(Cl)cc2)c2c(NC(=O)c3ccccc3)nnc-2[nH]1,786-0,NCI60 SRB,10 µM,,growth percent,95.3%
COc1cc(NC(C)CCCN)c2ncccc2c1 (centres unmarked),iPSC-derived cardiomyocytes,concentration-response fit,concentration not given,baseline: vehicle,fitted bottom MyBP-C level,0%
COc1cnc2cccc(N3CCc4c(cc(Cn5ccnc5C)cc4-c4cn(C)nc4C(F)(F)F)C3=O)c2c1,NCI-H292,"cell growth, inhibitor",120 h,,EC50,> 30000 nM
COc1cc(/C=C/C(=O)N2CCC=CC2=O)cc(OC)c1OC,MDA-MB-468,"quantitative RT-PCR, measured: SOD1","30 µM, 8 h",baseline: untreated cells,mRNA level,164%
CC(C)(C)OC(=O)CN(Cc1ccc(Cl)cc1)Cc1ccc([N+](=O)[O-])s1,OCI-Ly1,,"0.1 µM, 120 h",,viability,117%
CCc1cnc(N2CCC(c3nc(COc4ccc(-n5cnnn5)cc4)cs3)CC2)nc1,HEK-293T,"RNA-seq GSEA, measured: HALLMARK_NOTCH_SIGNALING",concentration not given,direction not given,normalized enrichment score,-1.28
c1ccc2c(Cc3c[nH]c4ccccc34)c[nH]c2c1,OCI-Ly1,,"0.5 µM, 120 h",,viability,158%
FC(F)(F)c1ccc(CN(Cc2ccc(C(F)(F)F)cc2)c2ccc3scnc3c2)cc1,sample A patient iPSC-derived NPCs,MTS,"10 µM, 24 h",baseline: vehicle,viability,106 ± 2.28%
CCn1cc(-c2cc(Cn3ccoc3=N)cc3c2CCN([C@@H](C)c2cc(OC)ccn2)C3=O)c(C(F)(F)F)n1,KMS-11,"cell growth, inhibitor",120 h,,EC50,135 nM
NC(=O)c1cccc(N)c1,OCI-Ly1,,"0.1 µM, 120 h",,viability,82.9%
Cc1cccc(-c2[nH]c(CNc3ccccc3F)nc2-c2ccc3ncnn3c2)n1,pomalidomide-resistant MM1.S cells,XTT,1.25 µM,higher = more viable cells,XTT absorbance,3.4 E-1 and 2.8 E-1 and 2.7 E-1
C=C1C(=O)O[C@H]2[C@H]1CC/C(C)=C/CC[C@@]1(C)O[C@@H]21,iPSC-derived cardiomyocytes,concentration-response fit,concentration not given,baseline: vehicle,fitted bottom MyBP-C level,0%
O=C(Nc1ccc2c(O)cc(S(=O)(=O)O)cc2c1)Nc1ccc2c(O)cc(S(=O)(=O)O)cc2c1,OCI-Ly1,,"0.5 µM, 120 h",,viability,165%

# Excerpt of the above:
SMILES,cell line,test,setting,how to read,measurement,result
CC(C)(C)OC(=O)CN(Cc1ccc(Cl)cc1)Cc1ccc([N+](=O)[O-])s1,OCI-Ly1,,"0.1 µM, 120 h",,viability,117%
COc1cc2ncnc(Nc3ccc(Oc4ccccc4)cc3C)c2cc1OC.O=C(O)C(F)(F)F,LoVo (KRAS G13D),"cell viability, resazurin","1 µM, 72 h, with: trametinib 0 nM",baseline: DMSO,average fractional effect,1.42%
COc1cc2c(NC3CCN(C)CC3)nc(N3CCCN(C)CC3)nc2cc1OCCOCCN(C)C,OCI-Ly1,,"0.1 µM, 120 h",,viability,188%
